Results of several laboratories.
Each numbered part is a random draw from the data of one study; scales do not carry over between parts. “And” joins repeats or separate records; there may be more than shown. Substitutions count along the parent as printed.
Sequence of UniProt P07949 (whole entry, unmodified, looked up): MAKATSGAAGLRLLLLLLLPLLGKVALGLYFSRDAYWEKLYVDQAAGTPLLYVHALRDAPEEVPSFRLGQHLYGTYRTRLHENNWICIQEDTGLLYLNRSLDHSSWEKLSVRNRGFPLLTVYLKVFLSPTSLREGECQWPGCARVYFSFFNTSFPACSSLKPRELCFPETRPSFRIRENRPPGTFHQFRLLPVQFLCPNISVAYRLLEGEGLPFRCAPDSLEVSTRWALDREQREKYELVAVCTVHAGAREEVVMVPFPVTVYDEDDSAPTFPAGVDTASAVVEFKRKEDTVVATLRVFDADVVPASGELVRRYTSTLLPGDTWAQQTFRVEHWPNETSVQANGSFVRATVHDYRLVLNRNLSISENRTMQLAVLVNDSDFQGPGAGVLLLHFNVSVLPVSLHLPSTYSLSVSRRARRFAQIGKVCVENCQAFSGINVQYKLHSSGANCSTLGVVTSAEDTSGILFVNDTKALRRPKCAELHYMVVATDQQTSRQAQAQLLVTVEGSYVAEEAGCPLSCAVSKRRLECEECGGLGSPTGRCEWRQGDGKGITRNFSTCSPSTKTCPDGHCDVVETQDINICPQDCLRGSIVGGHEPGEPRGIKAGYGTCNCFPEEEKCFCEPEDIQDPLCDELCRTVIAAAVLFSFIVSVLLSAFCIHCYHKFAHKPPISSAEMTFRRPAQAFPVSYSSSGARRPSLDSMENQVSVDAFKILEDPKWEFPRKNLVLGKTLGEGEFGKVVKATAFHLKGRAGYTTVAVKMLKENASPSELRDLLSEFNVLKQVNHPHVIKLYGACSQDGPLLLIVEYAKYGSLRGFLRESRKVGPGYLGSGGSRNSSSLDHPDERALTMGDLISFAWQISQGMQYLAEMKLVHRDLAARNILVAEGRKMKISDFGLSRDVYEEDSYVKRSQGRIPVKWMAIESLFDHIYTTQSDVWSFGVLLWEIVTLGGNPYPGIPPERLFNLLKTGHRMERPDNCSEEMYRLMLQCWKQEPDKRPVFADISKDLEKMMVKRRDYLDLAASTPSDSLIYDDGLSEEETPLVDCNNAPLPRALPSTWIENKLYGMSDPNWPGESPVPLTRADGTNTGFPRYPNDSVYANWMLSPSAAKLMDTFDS
Sequence of UniProt Q7KZI7 (whole entry, looked up): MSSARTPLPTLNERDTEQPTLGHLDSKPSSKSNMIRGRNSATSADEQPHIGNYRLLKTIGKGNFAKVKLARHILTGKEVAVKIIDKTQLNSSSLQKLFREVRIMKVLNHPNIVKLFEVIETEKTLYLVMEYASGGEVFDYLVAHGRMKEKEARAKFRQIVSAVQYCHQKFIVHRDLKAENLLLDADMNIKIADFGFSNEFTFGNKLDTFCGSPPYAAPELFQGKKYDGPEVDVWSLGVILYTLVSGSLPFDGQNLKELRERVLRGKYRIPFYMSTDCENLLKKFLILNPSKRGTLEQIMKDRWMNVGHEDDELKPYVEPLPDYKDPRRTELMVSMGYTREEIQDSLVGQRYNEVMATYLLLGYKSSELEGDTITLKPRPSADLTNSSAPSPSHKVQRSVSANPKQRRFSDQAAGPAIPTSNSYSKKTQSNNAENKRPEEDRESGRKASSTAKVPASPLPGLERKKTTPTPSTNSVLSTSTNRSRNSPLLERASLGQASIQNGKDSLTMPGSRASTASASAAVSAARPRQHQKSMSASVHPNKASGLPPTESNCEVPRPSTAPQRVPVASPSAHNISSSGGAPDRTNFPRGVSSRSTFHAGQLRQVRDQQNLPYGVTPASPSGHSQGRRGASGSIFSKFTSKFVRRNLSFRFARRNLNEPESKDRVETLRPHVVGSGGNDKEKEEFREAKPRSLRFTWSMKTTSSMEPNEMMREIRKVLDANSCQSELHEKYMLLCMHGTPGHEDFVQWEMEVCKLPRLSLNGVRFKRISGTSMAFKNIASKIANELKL
Sequence of UniProt P51813 (whole entry, looked up): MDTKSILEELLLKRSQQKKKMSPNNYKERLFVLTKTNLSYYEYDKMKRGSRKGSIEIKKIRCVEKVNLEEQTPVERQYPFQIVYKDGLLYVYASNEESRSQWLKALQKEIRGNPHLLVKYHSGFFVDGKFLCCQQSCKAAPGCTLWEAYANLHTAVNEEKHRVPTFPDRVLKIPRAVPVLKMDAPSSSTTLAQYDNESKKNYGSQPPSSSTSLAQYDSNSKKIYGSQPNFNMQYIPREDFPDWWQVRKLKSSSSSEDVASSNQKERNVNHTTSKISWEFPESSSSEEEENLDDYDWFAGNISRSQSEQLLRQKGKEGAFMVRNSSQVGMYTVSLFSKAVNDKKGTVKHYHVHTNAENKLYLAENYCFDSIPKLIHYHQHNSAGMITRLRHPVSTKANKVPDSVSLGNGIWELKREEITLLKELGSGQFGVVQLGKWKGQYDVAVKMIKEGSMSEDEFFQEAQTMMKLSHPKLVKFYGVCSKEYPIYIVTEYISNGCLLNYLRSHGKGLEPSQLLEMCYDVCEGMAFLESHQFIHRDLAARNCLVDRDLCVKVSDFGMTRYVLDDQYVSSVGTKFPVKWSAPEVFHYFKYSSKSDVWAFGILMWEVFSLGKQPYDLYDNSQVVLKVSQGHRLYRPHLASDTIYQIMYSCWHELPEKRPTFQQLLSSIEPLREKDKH
Sequence of UniProt Q9Y243 (whole entry, looked up): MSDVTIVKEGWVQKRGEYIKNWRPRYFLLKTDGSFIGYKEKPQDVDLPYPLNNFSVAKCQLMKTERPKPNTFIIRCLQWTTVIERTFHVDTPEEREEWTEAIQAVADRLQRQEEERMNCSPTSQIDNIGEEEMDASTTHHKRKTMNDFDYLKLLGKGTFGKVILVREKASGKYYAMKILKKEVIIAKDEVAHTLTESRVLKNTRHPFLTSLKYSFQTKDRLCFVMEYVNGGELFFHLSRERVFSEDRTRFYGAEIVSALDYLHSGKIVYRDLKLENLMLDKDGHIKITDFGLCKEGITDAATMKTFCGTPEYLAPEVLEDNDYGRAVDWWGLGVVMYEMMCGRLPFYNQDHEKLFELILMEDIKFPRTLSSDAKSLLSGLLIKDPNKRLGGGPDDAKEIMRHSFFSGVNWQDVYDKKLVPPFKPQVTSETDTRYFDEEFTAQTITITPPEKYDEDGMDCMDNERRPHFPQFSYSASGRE
Sequence of UniProt Q8WU08 (whole entry, looked up): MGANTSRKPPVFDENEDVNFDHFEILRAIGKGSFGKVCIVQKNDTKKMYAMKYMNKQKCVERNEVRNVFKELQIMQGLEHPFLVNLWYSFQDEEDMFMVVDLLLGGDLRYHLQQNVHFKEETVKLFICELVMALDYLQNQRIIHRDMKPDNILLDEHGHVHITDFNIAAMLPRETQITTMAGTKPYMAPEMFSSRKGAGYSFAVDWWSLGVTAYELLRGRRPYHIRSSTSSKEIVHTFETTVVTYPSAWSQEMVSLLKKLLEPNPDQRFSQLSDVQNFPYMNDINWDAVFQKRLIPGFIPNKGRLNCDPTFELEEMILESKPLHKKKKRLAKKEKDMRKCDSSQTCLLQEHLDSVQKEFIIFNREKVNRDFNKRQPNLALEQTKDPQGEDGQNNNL
Sequence of UniProt O95747 (whole entry, looked up): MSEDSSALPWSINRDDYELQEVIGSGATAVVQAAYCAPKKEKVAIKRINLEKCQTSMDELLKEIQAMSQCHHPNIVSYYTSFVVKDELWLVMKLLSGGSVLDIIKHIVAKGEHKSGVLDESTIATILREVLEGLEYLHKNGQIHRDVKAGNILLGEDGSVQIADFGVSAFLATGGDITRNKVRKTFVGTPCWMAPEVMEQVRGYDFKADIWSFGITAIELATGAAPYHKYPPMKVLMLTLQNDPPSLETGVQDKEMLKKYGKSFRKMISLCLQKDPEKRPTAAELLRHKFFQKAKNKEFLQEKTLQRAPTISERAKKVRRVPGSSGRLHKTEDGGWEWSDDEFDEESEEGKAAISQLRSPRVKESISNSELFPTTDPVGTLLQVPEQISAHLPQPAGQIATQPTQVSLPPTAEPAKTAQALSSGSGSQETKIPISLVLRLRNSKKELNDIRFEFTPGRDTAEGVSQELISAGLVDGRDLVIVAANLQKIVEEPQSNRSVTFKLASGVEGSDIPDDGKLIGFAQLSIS
Sequence of UniProt Q9UPE1 (whole entry, looked up): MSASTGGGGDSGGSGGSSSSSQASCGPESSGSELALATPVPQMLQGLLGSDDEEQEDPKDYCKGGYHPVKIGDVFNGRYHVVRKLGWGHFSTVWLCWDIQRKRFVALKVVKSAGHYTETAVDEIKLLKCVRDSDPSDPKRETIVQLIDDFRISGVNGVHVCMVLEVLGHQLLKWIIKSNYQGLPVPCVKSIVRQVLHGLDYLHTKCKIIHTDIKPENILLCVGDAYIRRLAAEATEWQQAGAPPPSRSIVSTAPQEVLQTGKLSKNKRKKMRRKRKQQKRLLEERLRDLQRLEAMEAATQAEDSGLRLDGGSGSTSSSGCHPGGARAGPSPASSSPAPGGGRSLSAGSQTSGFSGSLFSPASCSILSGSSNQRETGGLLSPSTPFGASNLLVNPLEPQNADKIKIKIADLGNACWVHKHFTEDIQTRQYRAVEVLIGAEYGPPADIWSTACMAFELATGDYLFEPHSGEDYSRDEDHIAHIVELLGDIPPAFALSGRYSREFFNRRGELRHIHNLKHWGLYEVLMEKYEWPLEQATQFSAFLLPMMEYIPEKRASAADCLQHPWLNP

Series 1 — target: CCNA1, cyclin fold, Cln2 fusion (human); method: yeast growth competition, sequencing; matrix: yeast; setting: weak parent motif; reference: not given; direction: higher = stronger binding; endpoint: normalised enrichment score; parent: viral docking peptide; KGVKRKLFAEDSS
K6W: -0.265
D11L: 0.356
K4L: 0.0372
F8R: 0.195
R5I: 0.118
R5Y: -0.00711
K4G: 0.177
K6L: 0.307

Series 2 — cell line: mouse MPNST tumor cells; method: high-content immunofluorescence imaging; item: nuclear SOX9; tested at: 10 µM; time: 12 h; setting: mean of 2 replicates; reference: DMSO control; direction: higher = more nuclear SOX9; endpoint: nuclear SOX9 intensity
CN1CCc2cccc(Cl)c2CC1: 100 % of DMSO
C[C@]12CC[C@H](O)C[C@H]1CC[C@@H]1[C@@H]2CC[C@]2(C)[C@@H](C3=CC(=O)OC3)CC[C@]12O: 98.6 % of DMSO
CC(=O)[C@H]1CC[C@H]2[C@@H]3CC[C@H]4C[C@H](O)CC[C@]4(C)[C@H]3CC[C@]12C: 92.4 % of DMSO
O=C1CSC(c2ccccc2Cl)c2cc(Cl)ccc2N1 (stereo not drawn): 94.5 % of DMSO

Series 3 — effect on: enzyme activity; mode: inhibitor; tested at: 0.5 µM; reference: control; endpoint: remaining activity
Compound: O=C1NC(=O)c2c1c1c3ccccc3n3c1c1c2c2ccccc2n1[C@H]1CC[C@@H]3O1
Cytoplasmic tyrosine-protein kinase BMX (BMX, Homo sapiens, UniProt P51813): 27.5%
SRSF protein kinase 3 (SRPK3, Homo sapiens, UniProt Q9UPE1): 63.6%
Myosin light chain kinase, smooth muscle (MYLK, Homo sapiens, UniProt Q15746): 4.01%

Series 4 — effect on: enzyme activity; mode: inhibitor; tested at: 10 µM; endpoint: inhibition
Target: Calcium/calmodulin-dependent protein kinase type II subunit alpha (CAMK2A, Homo sapiens, UniProt Q9UQM7)
Sequence of UniProt Q9UQM7 (whole entry, looked up): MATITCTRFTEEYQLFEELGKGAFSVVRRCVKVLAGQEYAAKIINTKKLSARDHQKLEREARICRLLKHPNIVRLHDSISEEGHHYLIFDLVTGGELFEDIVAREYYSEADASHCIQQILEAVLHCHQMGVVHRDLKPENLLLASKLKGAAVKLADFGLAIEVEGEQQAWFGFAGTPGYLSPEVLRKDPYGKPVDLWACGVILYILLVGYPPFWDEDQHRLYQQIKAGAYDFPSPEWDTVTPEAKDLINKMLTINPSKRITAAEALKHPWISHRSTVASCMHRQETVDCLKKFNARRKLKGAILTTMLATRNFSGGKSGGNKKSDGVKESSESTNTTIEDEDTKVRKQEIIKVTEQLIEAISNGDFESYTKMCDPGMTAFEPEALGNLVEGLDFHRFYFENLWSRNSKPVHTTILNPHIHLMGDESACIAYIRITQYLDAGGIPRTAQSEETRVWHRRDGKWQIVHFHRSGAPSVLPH
CN1CC[C@]23C(=O)C[C@H]4C(=CCO[C@H]5CC(=O)N(c6c(O)cccc62)[C@H]3[C@H]54)C1: -2%
COc1cccc(C=O)c1: 29%
Nc1nc(N)nc(N)n1: -16%

Series 5 — organism: Sarcocystis neurona; effect on: parasite growth; tested at: concentration not given; setting: secondary screen; endpoint: inhibition
CCCCCCCCCOc1ccc2[nH]cc(CCN)c2c1: -12.7%
C[N+]1(C)CCN(c2ccccc2)CC1.[I-]: -15%
CC(NC(C)(C)C)C(=O)c1cccc(Cl)c1.Cl (stereo not drawn): -31.3%
CN1CC[C@@H](c2ccc(F)cc2)[C@H](COc2ccc3c(c2)OCO3)C1: -15.3%

Series 6 — method: CCK-8; endpoint: survival
SMILES: CC[C@@H](C)c1nc2cc(Nc3ccnc4ccc(S(=O)(=O)C(C)C)cc34)ccc2s1.Cl
L929 RIPK3-/- reexpressing RIPK3 K51A/R69H; 25 µM, together with: zVAD: 94.2% and 79.4% and 81.6% and 91.8%
L929 RIPK3-/- reexpressing RIPK3 K51A/R69H; 6.25 µM, together with: zVAD: 99.8% and 93.8% and 93.7% and 92.3% and 100%
L929 RIPK3-/- reexpressing RIPK3 K51A; 25 µM: 108% and 112% and 89.9% and 88.4% and 90.4%
L929 RIPK3-/- reexpressing RIPK3 K51A; 6.25 µM, together with: zVAD: 100% and 105% and 84% and 110%
L929 RIPK3-/- reexpressing RIPK3 K51A; 50 µM: 53.5% and 52% and 26.3% and 27.4%

Series 7 — species: mouse; matrix: microsomes or S9; tested at: 2 µM; time: 0.5 h; endpoint: remaining compound
OC(c1ccccc1)(c1ccccc1)C1CCCN1 (stereo not drawn): 58.2%
O=c1c2c(Cl)cccc2nc([C@@H]2CCCN2)n1-c1ccccc1: > 100%
N#Cc1cccc(N2C[C@@H](c3cccc(F)c3F)[C@@H]3[C@H]2C2CCN3CC2)n1: 28%
NC1=NC(c2ccccc2)(c2ccccc2)C(=O)N1: 88.7%

Series 8 — method: competition with immobilised ligand; tested at: 1 µM; endpoint: remaining binding
Structure (SMILES): Cn1cncc1[C@@](O)(COc1ccc(C#N)cc1-c1ccc(OC(F)(F)F)cc1)c1ccc(C#N)cc1
Serine/threonine-protein kinase MARK2 (MARK2, Homo sapiens, UniProt Q7KZI7); cell-free assay: 100%
Epidermal growth factor receptor (EGFR, Homo sapiens, UniProt P00533, A750P/del747-749); cell-free assay: 100%
Interleukin-1 receptor-associated kinase 1 (IRAK1, Homo sapiens, UniProt P51617); cell-free assay: 73%
Serine/threonine-protein kinase 36 (STK36, Homo sapiens, UniProt Q9NRP7); cell-free assay: 93%
Receptor-type tyrosine-protein kinase FLT3 (FLT3, Homo sapiens, UniProt P36888, D835Y); cell-free assay: 78%
Interferon-induced, double-stranded RNA-activated protein kinase (EIF2AK2, Homo sapiens, UniProt P19525); cell-free assay: 100%
Serine/threonine-protein kinase 32A (STK32A, Homo sapiens, UniProt Q8WU08); cell-free assay: 75%
Epidermal growth factor receptor (EGFR, Homo sapiens, UniProt P00533, L858R/T790M); cell-free assay: 96%
Testis-specific serine/threonine-protein kinase 3 (TSSK3, Homo sapiens, UniProt Q96PN8); cell-free assay: 100%
Proto-oncogene tyrosine-protein kinase receptor Ret (RET, Homo sapiens, UniProt P07949, V804L); cell-free assay: 89%
Serine/threonine-protein kinase haspin (HASPIN, Homo sapiens, UniProt Q8TF76); cell-free assay: 100%
Serine/threonine-protein kinase pim-2 (PIM2, Homo sapiens, UniProt Q9P1W9); cell-free assay: 100%
Cyclin-dependent kinase 14 (CDK14, Homo sapiens, UniProt O94921); cell-free assay: 100%
Phosphatidylinositol 5-phosphate 4-kinase type-2 beta (PIP4K2B, Homo sapiens, UniProt P78356); cell-free assay: 100%
Proto-oncogene tyrosine-protein kinase receptor Ret (RET, Homo sapiens, UniProt P07949); cell-free assay: 100%
Fibroblast growth factor receptor 3 (FGFR3, Homo sapiens, UniProt P22607, G697C); cell-free assay: 97%
Myosin-IIIa (MYO3A, Homo sapiens, UniProt Q8NEV4); binding: 98%
Mitogen-activated protein kinase 13 (MAPK13, Homo sapiens, UniProt O15264); cell-free assay: 90%
Proto-oncogene tyrosine-protein kinase ROS (ROS1, Homo sapiens, UniProt P08922); cell-free assay: 96%
Serine/threonine-protein kinase mTOR (MTOR, Homo sapiens, UniProt P42345); cell-free assay: 100%
Serine/threonine-protein kinase OSR1 (OXSR1, Homo sapiens, UniProt O95747); cell-free assay: 75%
Hepatocyte growth factor receptor (MET, Homo sapiens, UniProt P08581, Y1235D); cell-free assay: 100%
RAC-gamma serine/threonine-protein kinase (AKT3, Homo sapiens, UniProt Q9Y243); cell-free assay: 100%
Serine/threonine-protein kinase Nek3 (NEK3, Homo sapiens, UniProt P51956); cell-free assay: 87%
Calcium/calmodulin-dependent protein kinase kinase 2 (CAMKK2, Homo sapiens, UniProt Q96RR4); cell-free assay: 97%

Other studies, line by line
NC(=O)CN1CCCC1=O
viability (A-375; 100 µM, 36 h): 120%
